Results of several laboratories.
Each line is one published result; not all experiments were run side by side. ± gives the spread as reported.

For `C=CC1=C(C)c2cc3nc(cc4[nH]c(cc5[nH]c(cc1n2)c(C)c5C=C)c(C)c4CCC(=O)OCc1ccccc1)C(CCC(=O)O)=C3C`, the CC50 was 198.6 ± 1.62 µM (dog cells).
For `COc1cc(/C=C/c2ccc3c(c2)[C@@H](c2cc(OC)cc(OC)c2)[C@H](c2ccc(O)cc2)O3)cc(OC)c1`, the CC50 was 305 µM (dog cells; 24 (unit not given)).
`CCN(CC)CCOC1CCC2(C)C(=CCC3C4CCC(=O)C4(C)CCC32)C1` (centres unmarked) gave a CC50 of 74.4 µM (MRC5; cell growth or viability, MTT; 24 h).
The CC50 of `CC1(C)OB(c2ccc(CNC(=O)c3cn(Cc4ccc(F)cc4)cc(O)c3=O)cc2)OC1(C)C` is reported as over 50 µM (HFF; cell growth or viability, MTS; 7 days).
The CC50 of `C=C1CCC2C(C)(CO)C(O)CCC2(C)C1CC(SC(=S)N1CCN(Cc2cc(F)c(F)cc2F)CC1)C1=CCOC1=O` (centres unmarked) is reported as 13.2 ± 2.25 µM (HaCaT; MTT; 24 h).
The CC50 of `CONC(=O)[C@H]1[C@@H](O)[C@@]2(O)c3c(OC)cc(OC)cc3O[C@@]2(c2ccc(OC)cc2)[C@@H]1c1ccccc1` is reported as over 5 µM (murine hepatocytes, mock-infected; cytotoxicity).
With `CC(C)=CCc1c(O)ccc(C(=O)C2C(c3c(O)cc(O)c4c(=O)c(CC=C(C)C)c(-c5ccc(O)cc5O)oc34)C=C(C)CC2c2ccc(O)cc2O)c1O` (centres unmarked) the CC50 was 18.1 ± 3.8 µM (Huh-7, mock-infected; MTS; 4 (unit not given)).
The CC50 of `CC[C@H](C)[C@@H]1NC(=O)[C@H](CC(C)C)NC(=O)[C@@](C)(NC(=O)[C@H](Cc2ccccc2)NC(=O)[C@H](Cc2ccc(O)cc2)NC(=O)[C@H](C)NC(=O)[C@@H](N)[C@@H](C)O)CCCC=CCCC[C@@](C)(C(=O)NCC(=O)N[C@@H](CCCNC(=N)N)C(=O)N[C@@H](Cc2c[nH]c3ccccc23)C(N)=O)NC(=O)[C@H](CC(C)C)NC1=O` is reported as 41 ± 15 µM (MT-4).
For `C=CC1=C(C)c2cc3nc(cc4[nH]c(cc5[nH]c(cc1n2)c(C)c5C=C)c(C)c4CCC(=O)OCCCCCCCCCCCCCC)C(CCC(=O)O)=C3C`, the CC50 was 128.3 ± 0.54 µM (dog cells).
The CC50 of `CC(C)C[C@@H]1NC(=O)[C@H](CCCCN)NC(=O)[C@H](CC(C)C)NC(=O)[C@@](C)(NC(=O)[C@H](Cc2ccccc2)NC(=O)[C@H](Cc2ccc(O)cc2)NC(=O)[C@H](C)NC(=O)[C@@H](N)[C@@H](C)O)CCCC=CCCC[C@@](C)(C(=O)NCC(=O)N[C@@H](CCCNC(=N)N)C(=O)N[C@@H](Cc2c[nH]c3ccccc23)C(N)=O)NC1=O` is reported as 50 µM (MT-4).
With `N=C(N)N1CC23C4CCC5C4C4C2CCC4C53C1` the CC50 was over 100 µM (dog cells; cytotoxicity; 3 (unit not given)).
For `O=C(NCc1cccc(Cl)c1F)c1cn(Cc2ccc(F)cc2)cc(O)c1=O`, the CC50 was over 50 µM (HFF; cell growth or viability, MTS; 7 days).
For `C=CC1=C(C)c2cc3nc(cc4[nH]c(cc5[nH]c(cc1n2)c(C)c5C=C)c(C)c4CCC(=O)OCc1ccc(-c2ccccc2)cc1)C(CCC(=O)O)=C3C`, the CC50 was 237 ± 2.72 µM (dog cells).
`Cc1ccc(CNC(=O)c2cn(Cc3ccc(F)cc3)cc(O)c2=O)c(F)c1` has a CC50 of over 50 µM (HFF; cell growth or viability, MTS; 7 days).
With `CC(N)C12C3CCC4C3C3C(CCC31)C42` (centres unmarked) the CC50 was at least 100 µM (dog cells; cytotoxicity; 3 (unit not given)).
The CC50 of `CN=c1nc(-c2ccccc2)n(-c2ccccc2)s1` is reported as 14 ± 1.3 µM (Huh-7, mock-infected; MTS; 4 (unit not given)).
`N=C(N)NCC12C3CCC4C3C3C(CCC31)C42` gave a CC50 of 45 µM (dog cells; cytotoxicity; 3 (unit not given)).
For `COc1cn(Cc2ccc(F)cc2)cc(C(=O)NCc2ccc(F)cc2F)c1=O`, the CC50 was over 50 µM (HFF; cell growth or viability, MTS; 7 days).
For `CC(C)=CCNCCOC1C2CC3CC(C2)CC1C3` (centres unmarked), the CC50 was 9.2 µg/mL (HEK-293T; cell growth or viability).
`CN(C)CC12C3CCC4C3C3C(CCC31)C42` gave a CC50 of 47 µM (dog cells; cytotoxicity; 3 (unit not given)).
With `CC(C)C[C@@H]1NC(=O)[C@H](CCCCN)NC(=O)[C@H](CC(C)C)NC(=O)[C@@](C)(NC(=O)[C@H](Cc2ccccc2)NC(=O)[C@H](Cc2ccc(O)cc2)NC(=O)[C@H](C)NC(=O)[C@@H](NC(=O)c2ccc3c(c2)C(=O)OC32c3ccc(O)cc3Oc3cc(O)ccc32)[C@@H](C)O)CCCC=CCCC[C@@](C)(C(=O)NCC(=O)N[C@@H](CCCNC(=N)N)C(=O)N[C@@H](Cc2c[nH]c3ccccc23)C(N)=O)NC1=O` the CC50 was over 125 µM (MT-4).
For `CC[C@H](C)[C@@H]1NC(=O)[C@H](C)NC(=O)[C@H](C)NC(=O)[C@H]([C@@H](C)O)NC(=O)[C@H](Cc2ccccc2)NC(=O)[C@@H]2CSSC[C@@H]3NC(=O)[C@H](C(C)C)NC(=O)[C@H](CCCCN)NC(=O)[C@H](CO)NC(=O)[C@H](CCCCN)NC(=O)[C@@H]4CSSC[C@H](NC(=O)[C@H](CO)NC(=O)[C@H](CCC(=O)O)NC(=O)CNC(=O)[C@H](CSSC[C@H](NC(=O)CNC1=O)C(=O)N[C@@H](C)C(=O)N4)NC(=O)[C@@H]1CCCN1C(=O)[C@H](Cc1ccccc1)NC(=O)CNC(=O)[C@H](CC(N)=O)NC(=O)[C@H](CCCCN)NC(=O)[C@H](Cc1ccc(O)cc1)NC3=O)C(=O)N[C@@H](C(C)C)C(=O)N[C@@H](Cc1ccc(O)cc1)C(=O)N[C@@H](CC(C)C)C(=O)N1CCC[C@H]1C(=O)N2`, the CC50 was 1.26 ± 0.08 µM (HeLa; resazurin; 24 h).
`O=C(COc1ccc2c(c1O)C(=O)c1ccccc1C2=O)c1ccccc1` gave a CC50 of about 40 µM (MT2; cell growth or viability).
For `CN1CC23C4CCC5C4C4C2CCC4C53C1`, the CC50 was at least 20 µM (dog cells; cytotoxicity; 3 (unit not given)).
With `CC(C)C[C@H](NC(=O)[C@H](CCCCN)NC(=O)[C@@H](NC(=O)[C@H](CCCNC(=N)N)NC(=O)[C@H](Cc1c[nH]c2ccccc12)NC(=O)[C@@H](N)CCCCN)C(C)C)C(=O)N[C@H](C(=O)N[C@@H](C)C(=O)N[C@@H](CCCCN)C(=O)N[C@H](C(=O)N[C@@H](CCCNC(=N)N)C(=O)N[C@@H](Cc1c[nH]c2ccccc12)C(=O)N[C@@H](CCCCN)C(N)=O)C(C)C)[C@@H](C)O` the CC50 was 69.3 µM (HaCaT; cell viability; 24 h, serum-free medium).
With `O=C1C=CC(=O)C=C1` the CC50 was 36.2 ± 0.7 µM (Huh-7, mock-infected; MTS; 4 (unit not given)).
`O=C(NCc1cc(F)ccc1F)c1cn(Cc2ccc(F)cc2)cc(O)c1=O` gave a CC50 of over 50 µM (HFF; cell growth or viability, MTS; 7 days).
`C=C(C)[C@@H]1CC[C@]2(C(=O)N3CCN(C)CC3)CC[C@]3(C)[C@H](CC[C@@H]4[C@@]5(C)CCCNC(C)(C)[C@@H]5CC[C@]43C)[C@@H]12` gave a CC50 of 86.5 µM (HFF; cell growth or viability, ATP luminescence).
The CC50 of `CC(C)=CCC/C(C)=C/CC/C(C)=C/CNCCOC1C2CC3CC(C2)CC1C3` (centres unmarked) is reported as 11 µg/mL (HEK-293T; cell growth or viability).
`CCC1(CC)C2CC3CC(C2)CC1(N)C3` gave a CC50 of over 100 µM (dog cells; cytotoxicity; 3 (unit not given)).
`C1=[N+]2CCCC[N+]3=Cc4ccc5[n]4[Au-]23[n]2c1ccc2-c1nc2ccccc2nc1-5.F[P-](F)(F)(F)(F)F` has a CC50 of 50 µM (CNS cancer cell lines; NCI60 panel mean).
The CC50 of `CC(C)C[C@H](NC(=O)[C@H](C)NC(=O)CNC(=O)[C@@H](NC(=O)[C@@H](NC(=O)[C@H](CCCCN)NC(=O)[C@H](CCCCN)NC(=O)[C@H](CC(C)C)NC(=O)[C@H](CC(C)C)NC(=O)[C@H](CCCCN)NC(=O)[C@H](CC(C)C)NC(=O)[C@H](CC(C)C)NC(=O)[C@@H](N)CCCCN)C(C)C)C(C)C)C(=O)NCC(N)=O` is reported as 67 µM (HDMEC; cytotoxicity).
`CC1CCC(C(C)(C)C(=O)Nc2ccc(Oc3ccccc3)cc2)CC1` (centres unmarked) has a CC50 of over 12.5 µM (BaF3; cell growth or viability, ATP luminescence; 72 h).
The CC50 of `OC[C@H]1O[C@@H](Oc2cc3c(O)cc(O)cc3[o+]c2-c2ccc(O)c(O)c2)[C@H](O)[C@@H](O)[C@@H]1O` is reported as 59 ± 24 µM (Huh-7, mock-infected; MTS; 4 (unit not given)).
For `CC(CCC(=O)[O-])C1CCC2C3CCC4CC(O)CCC4(C)C3CCC12C.C[N+](C)(C)CC(O)CC(=O)O` (centres unmarked), the CC50 was over 50 µg/mL (A549-hACE2).
The CC50 of `COC(=O)c1cn(Cc2ccc(F)cc2)cc(OC)c1=O` is reported as over 50 µM (HFF; cell growth or viability, MTS; 7 days).
For `COc1cc(/C=C/c2ccc3c(c2)[C@@H](c2cc(O)cc(O)c2)[C@H](c2ccc(O)cc2)O3)cc(OC)c1`, the CC50 was 79.5 µM (dog cells; 24 (unit not given)).
With `CC(=N)NCC12C3CCC4C3C3C(CCC31)C42` the CC50 was over 100 µM (dog cells; cytotoxicity; 3 (unit not given)).
The CC50 of `O=C(NCc1cccc2[nH]cc(C(=O)C(F)(F)F)c12)c1cn(Cc2ccc(F)cc2)cc(O)c1=O` is reported as 12 µM (HFF; cell growth or viability, MTS; 7 days).
`CC(=N)NC12C3CCC4C3C3C(CCC31)C42` gave a CC50 of 14 µM (dog cells; cytotoxicity; 3 (unit not given)).
The CC50 of `O=C(O[C@@H]1Cc2c(O)cc(O)cc2O[C@@H]1c1cc(O)c(O)c(O)c1)c1cc(O)c(O)c(O)c1` is reported as 23.2 ± 7.5 µM (Huh-7, mock-infected; MTS; 4 (unit not given)).

Some of these lines once more:
The CC50 of `COC(=O)c1cn(Cc2ccc(F)cc2)cc(OC)c1=O` is reported as over 50 µM (HFF; cell growth or viability, MTS; 7 days).
For `CC(C)=CCNCCOC1C2CC3CC(C2)CC1C3` (centres unmarked), the CC50 was 9.2 µg/mL (HEK-293T; cell growth or viability).
`C=C(C)[C@@H]1CC[C@]2(C(=O)N3CCN(C)CC3)CC[C@]3(C)[C@H](CC[C@@H]4[C@@]5(C)CCCNC(C)(C)[C@@H]5CC[C@]43C)[C@@H]12` gave a CC50 of 86.5 µM (HFF; cell growth or viability, ATP luminescence).
With `CC(=N)NCC12C3CCC4C3C3C(CCC31)C42` the CC50 was over 100 µM (dog cells; cytotoxicity; 3 (unit not given)).
`CC1CCC(C(C)(C)C(=O)Nc2ccc(Oc3ccccc3)cc2)CC1` (centres unmarked) has a CC50 of over 12.5 µM (BaF3; cell growth or viability, ATP luminescence; 72 h).
The CC50 of `O=C(NCc1cccc2[nH]cc(C(=O)C(F)(F)F)c12)c1cn(Cc2ccc(F)cc2)cc(O)c1=O` is reported as 12 µM (HFF; cell growth or viability, MTS; 7 days).
